# Experimental data gathered from unrelated publications.
# A part holds a random share of what one study measured. Substitutions count along the parent as printed.

# Block 1
# Target: CCND2, cyclin fold, Cln2 fusion (human)
# Technique: yeast growth competition, sequencing
# Matrix: yeast
# Notes: weak parent motif
# Relative to: not given
# Direction: higher = stronger binding
# Starting sequence: SLBP docking peptide (human); ARYKRKLLINDFG; partner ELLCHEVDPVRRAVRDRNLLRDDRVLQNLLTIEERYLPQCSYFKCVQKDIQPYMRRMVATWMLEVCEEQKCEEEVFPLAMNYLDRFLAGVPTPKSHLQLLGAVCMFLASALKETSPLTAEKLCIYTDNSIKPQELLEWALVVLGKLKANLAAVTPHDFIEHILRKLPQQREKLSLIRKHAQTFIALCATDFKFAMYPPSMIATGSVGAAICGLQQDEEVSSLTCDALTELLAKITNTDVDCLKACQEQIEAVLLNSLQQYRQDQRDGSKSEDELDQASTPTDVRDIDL
Change,normalised enrichment score
ARYKRKVLINDFG [L7V],-0.134
ARYKRLLLINDFG [K6L],0.476
ARQKRKLLINDFG [Y3Q],0.18
ARYKPKLLINDFG [R5P],0.184
ARYKRKLLINDFN [G13N],-0.144
ARYVRKLLINDFG [K4V],0.00516
ARYKRKSLINDFG [L7S],0.121
ARYKSKLLINDFG [R5S],0.346
ARYKRKLLINDFW [G13W],-0.478

# Block 2
# Target: Histone acetyltransferase KAT6A, both winged helices, GST fusion (KAT6A, Homo sapiens, UniProt Q92794, residues 1-181)
# Technique: protein binding microarray
# Form: double-stranded DNA, one strand shown
# Matrix: in vitro
# Tested at: not given
# Notes: 8-mer, flanks averaged, mean of 2 arrays, mostly near background
# Relative to: not given
# Direction: higher = stronger binding
# Construct (chain): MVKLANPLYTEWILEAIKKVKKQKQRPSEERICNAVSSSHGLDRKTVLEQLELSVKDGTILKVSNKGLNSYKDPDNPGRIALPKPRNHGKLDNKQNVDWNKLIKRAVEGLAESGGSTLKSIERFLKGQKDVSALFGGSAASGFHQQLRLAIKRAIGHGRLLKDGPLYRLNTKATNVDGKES
Strand,E-score
ATGAGAAC,0.000685
CTAGGCTC,-0.192
ATGTCAAC,-0.0622
GAACTGTC,-0.054
CGACCTAG,0.0645
CCTAGAGC,0.035
GCTGTGAA,-0.0964
ACAATATC,0.0318
CAGAGCCA,-0.224
CTGATTGC,0.0331

# Block 3
# Target: Centromere-binding protein 1, full length, His-tagged (CBF1, Saccharomyces cerevisiae, UniProt P17106, residues 1-351)
# UniProt P17106, sequence (whole entry, looked up): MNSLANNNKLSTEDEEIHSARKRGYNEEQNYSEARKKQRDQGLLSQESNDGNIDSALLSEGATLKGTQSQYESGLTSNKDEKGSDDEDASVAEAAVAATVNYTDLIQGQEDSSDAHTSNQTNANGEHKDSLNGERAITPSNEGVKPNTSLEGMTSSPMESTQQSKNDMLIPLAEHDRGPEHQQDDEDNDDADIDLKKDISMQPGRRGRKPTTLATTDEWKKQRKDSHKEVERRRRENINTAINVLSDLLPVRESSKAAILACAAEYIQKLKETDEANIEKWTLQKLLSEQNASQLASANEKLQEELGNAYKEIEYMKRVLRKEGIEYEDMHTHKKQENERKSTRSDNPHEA
# Technique: competition protein-binding microarray
# Form: double-stranded DNA, one strand shown
# Matrix: in vitro
# Tested at: 2 µM
# Notes: whole 60-bp probe, lowest competitor level
# Together with: Pho4 competitor, 0.05 µM
# Direction: higher = stronger binding
# All sequences stand within: … GTCTTGATTCGCTTGACGCTGCTG
Strand,fluorescence intensity [a.u.]
ATTTGAACATTGAATCATGTGTACCTAACATAAAAT,261
TTTACCCATAAGTCCCACGATTATCCACTTTTTAAT,71.8
GTCTTGTCTCATTGAGGTGTGGGTGTCCCCACTTCA,80.6
TGCGCAACAACTTGTGTCGTGGGTGTATGTCTAGAA,83.6
CTTAATTGCAAGATTCAGCTGACTGCATATGGGCAG,151
TTATTGGTGGACAGTCAGCTGACAGAAAACTTAGAT,890
CTTCGGTAGCCGAGCCTCGTCTGTGTGTGTGGGAAT,54.6
CTAACGAAGGTTTTTCACGTGCTGTACAAGCCAAGT,1160
TCTCGATCTTCCCATCACGCATAGGGTTTTGGGCTT,85.9
ACTCTACGGATGAGTCAGGTGATGGGTCTTATCAAG,816
CGTAAGAAAGGCCATCACGTGTGGAGGGGAGAGCTC,1940

# Other studies, line by line
Molecule,target,assay,test system,setting,how to read,endpoint,result
"PhoQ, residues 284 288 289 292 302 303 NLSRDF","PhoP, residues 12 14 15 18 19 GQALL (Escherichia coli, UniProt P23836)","Sort-seq, refers to: YFP reporter",E. coli,"PhoQ-PhoP variant library, together with: 10 µM Mg2+","relative to: high Mg2+ state, higher = stronger signaling",fold induction,13.5

# Some of these lines once more (block 3):
Strand,fluorescence intensity [a.u.]
CGTAAGAAAGGCCATCACGTGTGGAGGGGAGAGCTC,1940
GTCTTGTCTCATTGAGGTGTGGGTGTCCCCACTTCA,80.6
ATTTGAACATTGAATCATGTGTACCTAACATAAAAT,261
CTAACGAAGGTTTTTCACGTGCTGTACAAGCCAAGT,1160
TTTACCCATAAGTCCCACGATTATCCACTTTTTAAT,71.8
